Published values collected from several papers.
Each line is one published result; not all experiments were run side by side.
HIPK4: Homeodomain-interacting protein kinase 4 (HIPK4, Homo sapiens, UniProt Q8NE63)
Sequence of UniProt Q8NE63 (whole entry, looked up): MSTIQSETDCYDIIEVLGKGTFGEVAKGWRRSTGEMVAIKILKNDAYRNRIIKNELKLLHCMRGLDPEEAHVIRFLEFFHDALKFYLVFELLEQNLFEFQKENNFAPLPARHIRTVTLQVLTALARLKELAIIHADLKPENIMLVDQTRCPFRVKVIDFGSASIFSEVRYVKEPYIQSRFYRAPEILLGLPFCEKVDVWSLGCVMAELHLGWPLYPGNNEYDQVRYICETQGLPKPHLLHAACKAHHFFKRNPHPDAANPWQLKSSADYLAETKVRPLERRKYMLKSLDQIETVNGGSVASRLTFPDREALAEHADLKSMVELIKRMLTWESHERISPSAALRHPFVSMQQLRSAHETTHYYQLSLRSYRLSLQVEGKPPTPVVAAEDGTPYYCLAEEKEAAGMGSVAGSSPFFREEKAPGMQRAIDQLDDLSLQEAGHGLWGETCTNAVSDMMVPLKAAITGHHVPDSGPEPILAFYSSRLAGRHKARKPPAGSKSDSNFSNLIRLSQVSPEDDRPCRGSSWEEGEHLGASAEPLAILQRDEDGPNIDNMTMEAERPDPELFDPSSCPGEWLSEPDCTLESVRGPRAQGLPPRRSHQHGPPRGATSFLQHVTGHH
Sequence of UniProt Q8IY84 (whole entry, looked up): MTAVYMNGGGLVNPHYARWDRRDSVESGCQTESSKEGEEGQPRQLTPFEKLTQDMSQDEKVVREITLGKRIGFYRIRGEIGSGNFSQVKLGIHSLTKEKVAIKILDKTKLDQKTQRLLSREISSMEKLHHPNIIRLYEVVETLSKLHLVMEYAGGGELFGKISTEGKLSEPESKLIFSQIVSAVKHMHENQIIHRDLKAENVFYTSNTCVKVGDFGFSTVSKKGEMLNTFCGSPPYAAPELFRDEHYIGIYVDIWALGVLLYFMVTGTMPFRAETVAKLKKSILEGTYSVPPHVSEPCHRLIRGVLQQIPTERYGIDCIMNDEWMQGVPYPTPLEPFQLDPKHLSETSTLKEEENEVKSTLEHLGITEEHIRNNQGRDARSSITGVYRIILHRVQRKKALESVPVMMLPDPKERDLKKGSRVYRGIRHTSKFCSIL
Sequence of UniProt Q02750 (whole entry, looked up): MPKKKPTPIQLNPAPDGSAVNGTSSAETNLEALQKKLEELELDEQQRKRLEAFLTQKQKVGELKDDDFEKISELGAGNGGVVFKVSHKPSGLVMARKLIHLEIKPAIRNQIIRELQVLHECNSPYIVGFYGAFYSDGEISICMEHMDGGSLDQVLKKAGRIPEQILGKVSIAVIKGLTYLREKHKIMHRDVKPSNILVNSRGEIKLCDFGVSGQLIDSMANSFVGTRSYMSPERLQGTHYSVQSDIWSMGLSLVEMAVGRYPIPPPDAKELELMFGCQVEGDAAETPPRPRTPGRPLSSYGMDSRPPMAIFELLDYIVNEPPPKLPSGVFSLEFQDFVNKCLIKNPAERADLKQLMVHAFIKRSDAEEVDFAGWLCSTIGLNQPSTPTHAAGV

| Structure (SMILES) | tested on | test | setting | endpoint | value |
| --- | --- | --- | --- | --- | --- |
| CCN(CC(=O)Nc1ccc(Oc2ccc(C)cc2)cc1)c1ccccc1N1CCCC1=O | HepG2 | cell growth or viability, ATP luminescence | 48 h | CC50 | > 40 µM |
| CC(=O)c1nn(-c2ccc(C)cc2)/c(=N/N=C(\C)c2ccc(NC(=O)c3ccccc3)cc2)s1 | WI-38 | cell growth or viability, MTS | 1.25 µM, 24 h | viability | 4.38% |
| COc1cc(-c2cncc3c2CN(C)Cc2cc(N4CCNCC4)ccc2-3)cc(OC)c1OC | HIPK4 | enzyme activity, inhibitor | 1 µM | remaining activity | 116% |
| Nc1ccn([C@@H]2O[C@H](CO)[C@@H](O)C2(F)F)c(=O)n1 | HEK293 | cell growth or viability, MTT | 2.5 µg/mL, 48 h | viability | 40.3% |
| CC(C)N(c1ccc(C#N)cc1)c1ccc(NC(=O)CN(C)c2ccccc2N2CCCC2=O)c(F)c1 | HepG2 | cell growth or viability, ATP luminescence | 48 h | CC50 | > 40 µM |
| CNc1ncc2c(/C=C/C(=O)N3CCC(OC)CC3)nn(Cc3cccc(C(F)(F)F)c3)c2n1 | HIPK4 | enzyme activity, inhibitor, radiometric | 1 µM | remaining activity | 108% |
| Cc1nc(O)n2ncc(Cl)c2n1 | K562 | cell growth or viability |  | IC50 | > 688 µM |
| CNC(=O)c1cc(Oc2ccc(NC(=O)Nc3ccc(Cl)c(C(F)(F)F)c3)cc2)ccn1 | WI-38 | cell growth or viability, MTT | 25 µM, 24 h | viability | 29% |
| COCCCNC(=N)c1ccc(NC(=O)c2ccc(C(=O)Nc3ccc(C(=N)NCCCOC)cc3)cc2)cc1 | K562 | cell growth or viability |  | IC50 | 56.3 µM |
| Cc1cc([C@@H](C)Nc2ccccc2C(=O)O)c2nc(N3CCC(F)(F)CC3)c(C#N)c(=O)n2c1 | MAP2K1 (Homo sapiens, UniProt Q02750) | binding, competition with immobilised ligand | 10 µM | remaining binding | 93% |
| CN(CC(=O)Nc1ccc(N(C)c2ccc(Cl)c(F)c2)cc1)c1ccccc1N1CCCC1=O | HepG2 | cell growth or viability, ATP luminescence | 48 h | CC50 | > 40 µM |
| CCOC(=O)/C(=N\NC(N)=S)c1cccs1 | K562 | cell growth or viability |  | IC50 | 107 µM |
| C=CC(=O)N1CCC(COCC(=O)N2CCN(c3nc(-c4cnc(N)nc4C(F)F)nc(N4CCOC[C@@H]4C)n3)CC2)CC1 | NIM1K (Homo sapiens, UniProt Q8IY84) | binding, competition with immobilised ligand | 1 µM | remaining binding | 85% |

For quick reference, copied from above:
| Structure (SMILES) | tested on | test | setting | endpoint | value |
| --- | --- | --- | --- | --- | --- |
| CN(CC(=O)Nc1ccc(N(C)c2ccc(Cl)c(F)c2)cc1)c1ccccc1N1CCCC1=O | HepG2 | cell growth or viability, ATP luminescence | 48 h | CC50 | > 40 µM |
| CCN(CC(=O)Nc1ccc(Oc2ccc(C)cc2)cc1)c1ccccc1N1CCCC1=O | HepG2 | cell growth or viability, ATP luminescence | 48 h | CC50 | > 40 µM |
